Measurements of several laboratories.
Lines come from different studies, so protocols differ. ± marks the error that the study gave.
UniProt Q70CQ1, sequence (whole entry, looked up): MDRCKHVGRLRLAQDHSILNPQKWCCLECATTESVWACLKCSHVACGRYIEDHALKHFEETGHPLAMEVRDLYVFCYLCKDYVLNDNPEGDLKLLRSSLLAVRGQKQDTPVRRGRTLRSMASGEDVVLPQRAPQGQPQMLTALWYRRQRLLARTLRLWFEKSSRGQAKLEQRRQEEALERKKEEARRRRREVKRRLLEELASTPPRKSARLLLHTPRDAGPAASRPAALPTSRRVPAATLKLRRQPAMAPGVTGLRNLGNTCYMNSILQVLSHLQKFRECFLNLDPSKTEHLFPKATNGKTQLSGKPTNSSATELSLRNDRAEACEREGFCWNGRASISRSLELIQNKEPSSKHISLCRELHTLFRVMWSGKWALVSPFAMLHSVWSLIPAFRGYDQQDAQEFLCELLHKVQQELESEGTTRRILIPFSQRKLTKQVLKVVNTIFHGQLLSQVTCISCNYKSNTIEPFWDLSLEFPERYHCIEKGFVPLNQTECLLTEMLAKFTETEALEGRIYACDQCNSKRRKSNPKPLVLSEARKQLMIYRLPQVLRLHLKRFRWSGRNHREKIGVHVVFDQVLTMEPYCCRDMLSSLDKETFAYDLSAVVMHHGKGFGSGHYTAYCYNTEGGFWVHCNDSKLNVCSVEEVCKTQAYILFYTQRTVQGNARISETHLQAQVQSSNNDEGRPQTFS
UniProt Q9Y2K6, sequence (whole entry, looked up): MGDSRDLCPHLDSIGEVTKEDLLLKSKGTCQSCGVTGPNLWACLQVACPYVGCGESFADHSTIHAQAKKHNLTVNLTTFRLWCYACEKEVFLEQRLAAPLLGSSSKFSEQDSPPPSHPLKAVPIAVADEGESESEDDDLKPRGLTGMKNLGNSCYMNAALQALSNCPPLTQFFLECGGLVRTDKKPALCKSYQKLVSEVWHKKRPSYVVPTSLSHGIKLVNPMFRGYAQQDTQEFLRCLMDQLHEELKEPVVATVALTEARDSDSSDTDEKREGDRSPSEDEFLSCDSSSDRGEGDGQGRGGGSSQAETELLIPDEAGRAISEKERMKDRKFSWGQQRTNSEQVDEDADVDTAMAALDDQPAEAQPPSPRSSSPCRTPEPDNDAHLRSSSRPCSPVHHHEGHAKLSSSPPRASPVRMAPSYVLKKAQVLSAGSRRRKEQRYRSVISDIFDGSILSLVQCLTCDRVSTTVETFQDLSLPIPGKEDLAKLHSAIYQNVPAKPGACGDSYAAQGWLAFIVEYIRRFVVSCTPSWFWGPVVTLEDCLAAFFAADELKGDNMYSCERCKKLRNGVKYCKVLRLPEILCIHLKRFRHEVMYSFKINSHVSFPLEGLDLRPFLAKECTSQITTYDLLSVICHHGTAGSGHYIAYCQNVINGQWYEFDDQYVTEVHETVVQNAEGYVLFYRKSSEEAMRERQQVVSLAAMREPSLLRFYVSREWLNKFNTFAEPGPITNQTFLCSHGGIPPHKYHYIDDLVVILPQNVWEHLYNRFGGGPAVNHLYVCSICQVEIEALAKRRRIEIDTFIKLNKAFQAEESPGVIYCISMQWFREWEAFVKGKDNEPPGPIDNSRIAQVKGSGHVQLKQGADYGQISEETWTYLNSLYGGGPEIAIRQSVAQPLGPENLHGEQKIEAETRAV

SMILES	tested on	test	system	conditions	scale	measurement	value
O=C(O)CCN1C(=O)CSC1=S			excised Bama miniature pig skin	10 mM, 24 h, Franz cell, 30% ethanol saline		cumulative permeation	29.9 ± 1.49%
Cc1cc(C)c(CNC(=O)c2cc(Cl)c3c(c2C)O[C@@](C)([C@H]2CC[C@H](N(C)C)CC2)O3)c(=O)[nH]1		measured: Dizziness	human patients	oral, 200 mg once daily, 1 day onset day 14		patients with TEAE	4.2%
OCc1nc2ccc(NCc3ccc(C(F)(F)F)cc3)cc2[nH]1			Balb/c mice, male, brain	oral, 10 mg/kg, 48 h		tissue concentration	not detected
CC(=O)N=S(=O)(O)c1ccc(N/C=C2\C(=O)Nc3ccc4ncsc4c32)cc1			octanol/buffer	67 µM, pH 7.4		logD	0.97
Cc1cc(C(=O)NC(C)(C)COc2cccc3c2C(N)=NS(=O)(=O)N3)cc(C)n1			Sprague-Dawley rat, female, plasma	intravenous, 1 mg/kg		Vz	0.575 L/kg
COc1ccc(OCC(=O)Nc2cc(-c3nn4c(C)nnc4s3)ccc2C)cc1			octanol/buffer	pH 7.4		logD	2.84
Cc1ccc([C@@H]2COC[C@H](c3ccc(-c4ccccc4)cc3)N2)cn1		shake-flask, 1-octanol/buffer		pH 7.4		logD	> 4.7
Cc1cc(NC2CCN(C(=O)OC3CCN(C(=O)/C=C/CN(C)C)C3)CC2)n2ncc(C(C)C)c2n1 (stereo not shown)		Phase I dose escalation CTCAE v4.0, measured: urinary tract infection	patients with advanced solid tumours	dose not given, QD dosing any grade		patients with adverse event	2%
CCC[C@H](C)[C@H]1CN(C(=O)OCC)C[C@@H](c2ccc(-c3ccccc3)cc2)N1		shake-flask, 1-octanol/buffer		pH 7.4		logD	> 4.7
Cc1cc(-n2nc3ccc(Cl)cc3n2)c(O)c(C(C)(C)C)c1			EpiSkin reconstructed epidermis	36 h		mass recovery	59.9%
CCn1c(=O)c(-c2cc(NC(=O)Nc3ccccc3)c(F)cc2Br)cc2cnc(NC)cc21		measured: nervous system disorders	human, mild hepatic impairment	oral, 50 mg single dose		participants with drug-related TEAE	0%
CC[C@H](C)[C@H](NC(=O)[C@H](Cc1ccccc1)NC(=O)[C@H](CCC(=O)O)NC(=O)[C@H](CCCCNC(=O)COCCOCCNC(=O)COCCOCCNC(=O)CC[C@H](NC(=O)CCCCCCCCCCCCCCCCC(=O)O)C(=O)O)NC(=O)[C@H](C)NC(=O)[C@H](C)NC(=O)[C@H](CCC(N)=O)NC(=O)CNC(=O)[C@H](CCC(=O)O)NC(=O)[C@H](CC(C)C)NC(=O)[C@H](Cc1ccc(O)cc1)NC(=O)[C@H](CO)NC(=O)[C@H](CO)NC(=O)[C@@H](NC(=O)[C@H](CC(=O)O)NC(=O)[C@H](CO)NC(=O)[C@@H](NC(=O)[C@H](Cc1ccccc1)NC(=O)[C@@H](NC(=O)CNC(=O)[C@H](CCC(=O)O)NC(=O)C(C)(C)NC(=O)[C@@H](N)Cc1cnc[nH]1)[C@@H](C)O)[C@@H](C)O)C(C)C)C(=O)N[C@@H](C)C(=O)N[C@@H](Cc1c[nH]c2ccccc12)C(=O)N[C@@H](CC(C)C)C(=O)N[C@H](C(=O)N[C@@H](CCCNC(=N)N)C(=O)NCC(=O)N[C@@H](CCCNC(=N)N)C(=O)NCC(=O)O)C(C)C		12-lead Holter ECG	healthy humans	subcutaneous, 1.5 mg once weekly, 12 h, steady state	relative to: placebo	QTcF change from baseline	-0.7 ms
CCc1nc(C(N)=O)c(Nc2ccc(N3CCC(N4CCN(C)CC4)CC3)c(OC)c2)nc1NC1CCOCC1			mouse plasma	15 ng/mL, three freeze-thaw cycles		freeze-thaw stability accuracy	91.6%
C[C@@H]1CN(CC(=O)N2CC(C)(C)c3nc(CO)c(Cc4ccc(F)cc4)cc32)[C@@H](CN2CCOC[C@H]2C)CN1			Sprague Dawley rat, male, bile duct cannulated, urine	intravenous, 5 mg/kg		renal clearance	13 mL/min/kg
CN1C(=O)[C@@H](NC(=O)c2nnc(Cc3ccccc3)[nH]2)COc2cccnc21		phase I single ascending dose	human, male and female	oral, 30 mg, fasted		participants with any serious TEAE	0%
CN(CCC#N)C1CCN(C(=O)Cn2cc(NC(=O)c3cnn4cccnc34)c(-c3cc(Cl)ccc3OC(F)F)n2)CC1			human, single ascending dose	15 mg, day 4	relative to: baseline	LDL cholesterol change	0 mg/dL
CCc1cc(C(=O)NC)c2nccc(N3CCc4c(cc(Cn5ccnc5)cc4-c4cn(C)nc4C(F)(F)F)C3=O)c2c1			Sprague Dawley rat	oral, 50 mg/kg once daily, day 5, 7-day toxicology study	relative to: day 1	body weight change	13.4%
CN(C(=O)C(C)(C)c1cc(C(F)(F)F)cc(C(F)(F)F)c1)c1cnc(N2C[C@H]3COCCN3C[C@H]2CO)cc1-c1ccc(F)cc1[14CH3]			pooled human liver microsomes	pH 7.4, substrate depletion		Km	0.206 µM
O=C(O)CCN1C(=O)c2ccccc2S1(=O)=O	Ubiquitin carboxyl-terminal hydrolase 20, ZnF-UBD domain (USP20, Homo sapiens, UniProt Q9Y2K6)					Kd	> 1000 µM
C[C@H]1OC[C@@H](C2CCCCC2)N[C@@H]1c1cccc(Cl)c1		shake-flask, 1-octanol/buffer		pH 7.4		logD	> 4.7
COc1ccc2c(=O)n(C)c(-c3ccccc3)nc2c1			Sprague-Dawley rat, male, small intestine	oral, 30 mg/kg, 2 h	relative to: small intestine over plasma	tissue/plasma ratio	2020
FC(F)(F)c1ccc(CNc2ccc(Cc3c[nH]c4ncc(Cl)cc34)cn2)cn1		measured: Hypertension	patients with advanced solid tumours, all cohorts	oral, 1000 mg/day, any grade		treatment-related adverse events	6%
CC(C)n1c(Nc2cccnc2)nc2cnc(Nc3ccc(N4CCN(C)CC4)cc3)nc21		measured: creatine phosphokinase increased	healthy human, male	oral, dose not given, CTCAE grade 1-3		subjects with TEAE	11.9%

SMILES	tested on	test	system	conditions	scale	measurement	value
O=C(Cc1ccc(OC(F)(F)F)cc1)Nc1cc(C2CC2)[nH]n1			octanol/buffer	67 µM, pH 7.4		logD	3.94
COC(=O)c1cccc(-c2cccc(Nc3nccc(NC4CCCCC4)n3)c2)c1			MDCKII-WT cells	10 µM, pH 7.4	relative to: Papp B-A over A-B	efflux ratio	8.3
C[C@@H](O)CCOC(=O)C[C@@H](C)O			human	oral drink, dose not given, 90 min post dose, mean		diastolic blood pressure	64 mmHg
NC1(C(=O)N[C@@H](CCO)c2ccc(Cl)cc2)CCN(c2nc[nH]c3nccc2-3)CC1			human mCRPC patients	oral, twice daily, 4/7 days, grade 3/4, treatment-related, with: enzalutamide 160 mg daily		lower abdominal pain incidence	0%
CC(C)(C(=O)N1CCOc2c(C#N)cncc2C1)C(F)F		measured: abdominal pain	human	oral, 10 mg once daily, 14 days, multiple ascending dose		subjects with adverse event	12.5%
CNCc1ccc(-c2[nH]c3cc(F)cc4c3c2CCNC4=O)cc1		measured: Cough	human patients	oral, 600 mg twice daily, grade 3		patients with adverse event	0%
O=C(O)CC1Oc2ccccc2NC1=O (stereo not shown)	Ubiquitin carboxyl-terminal hydrolase 49, ZnF-UBD domain (USP49, Homo sapiens, UniProt Q70CQ1)					Kd	> 1000 µM
C=CC(=O)NC1CCN(c2ncc3ncnc(Nc4ccc(Oc5ccc6c(c5)ncn6C)c(C)c4)c3n2)CC1			human, male, plasma	oral, 30 mg, adjusted geometric means	relative to: fed over fasted	AUC0-tz ratio	74.2%
CC[C@H](C)[C@H](NC(=O)[C@H](Cc1ccccc1)NC(=O)[C@H](CCC(=O)O)NC(=O)[C@H](CCCCNC(=O)COCCOCCNC(=O)COCCOCCNC(=O)CC[C@H](NC(=O)CCCCCCCCCCCCCCCCC(=O)O)C(=O)O)NC(=O)[C@H](C)NC(=O)[C@H](C)NC(=O)[C@H](CCC(N)=O)NC(=O)CNC(=O)[C@H](CCC(=O)O)NC(=O)[C@H](CC(C)C)NC(=O)[C@H](Cc1ccc(O)cc1)NC(=O)[C@H](CO)NC(=O)[C@H](CO)NC(=O)[C@@H](NC(=O)[C@H](CC(=O)O)NC(=O)[C@H](CO)NC(=O)[C@@H](NC(=O)[C@H](Cc1ccccc1)NC(=O)[C@@H](NC(=O)CNC(=O)[C@H](CCC(=O)O)NC(=O)C(C)(C)NC(=O)[C@@H](N)Cc1cnc[nH]1)[C@@H](C)O)[C@@H](C)O)C(C)C)C(=O)N[C@@H](C)C(=O)N[C@@H](Cc1c[nH]c2ccccc12)C(=O)N[C@@H](CC(C)C)C(=O)N[C@H](C(=O)N[C@@H](CCCNC(=N)N)C(=O)NCC(=O)N[C@@H](CCCNC(=N)N)C(=O)NCC(=O)O)C(C)C			Caucasian subjects	1.0 mg		subjects with moderate AEs	12.5%
CCOc1ccc2ccc(=O)oc2c1			CD-1 mouse, male, hepatocytes	1 µM		hepatic clearance	> 75.9 mL/min/kg
CSc1cc(C)nc(SC)c1NC(=O)CN1CCN(CCSc2nc3ccccc3[nH]2)CC1.Cl			mouse Crl:CD1 (ICR), female, cerebrum	intranasal, 10 µL of CA solution once daily for 7 days, 120 min after last dose, LLOQ 0.5 ng/g		tissue concentration	not detected
CCN1/C(=C/C(C)=O)Sc2ccc(F)cc21			cynomolgus monkey	oral, 10 mg/kg, 24 h post-dose		QT interval	261 ± 12 ms
CC(Sc1nc2ccccc2[nH]1)C(=O)Nc1ccc(S(N)(=O)=O)cc1 (stereo not shown)			octanol/buffer	pH 7.4		logD	2.47
CCn1cc(C(=O)N2CCOCC2)c(=O)c2cc(NC3Cc4ccccc4C3)cnc21			human overall, fed, plasma	oral, 900 mg twice daily, day 1, tablet, arithmetic mean		half-life	4.74 h
OC[C@H]1O[C@@H](c2ccc(Cl)c(Cc3ccc(O[C@H]4CCOC4)cc3)c2)[C@H](O)[C@@H](O)[C@@H]1O			Japanese type 1 diabetes patients, blood	10 mg, day 28	relative to: baseline	change in Magnesium	0.1 mEq/L
C[C@@H](Oc1ccc(S(C)(=O)=O)cc1C(=O)N1C[C@@H]2C[C@]2(c2cc(C(F)(F)F)on2)C1)C(F)(F)F		LC-MS/MS	elderly human subjects, plasma	oral, 25 mg once daily, steady state, multiple doses		half-life	52.7 h
CCCCOC(=O)N1CCN(C(=O)[C@H](CP(=O)(O)O)NC(=O)c2cc(N3CC[C@H](OC)C3)nc(-c3ccccc3)n2)CC1			human	subcutaneous, 16 mg, 24 h post-dose	relative to: baseline	change in heart rate	1.5 ± 5.6 beats/min
Cc1cc(Nc2cc3ncccc3c(N[C@@H]3C[C@H]4CC[C@@H](C3)N4CCC#N)n2)n[nH]1			healthy human subjects	oral, 30 mg, 14 days, multiple ascending dose		skin subcutaneous disorders incidence	0%
CCC(CC)[C@H]1CO[C@H](C)[C@@H](c2cccc(Cl)c2)N1		shake-flask, 1-octanol/buffer		pH 7.4		logD	> 4.7
Cc1cc(Nc2ccc(S(F)(F)(F)(F)F)cc2)n2nc(C(C)(F)F)nc2n1			mouse (CD-1, female), whole blood	50 µM, 120 min, 37 °C		blood/plasma ratio	0.83 ± 0.087
COc1cc2nccc(Oc3ccc(NC(=O)NC4CC4)c(Cl)c3)c2cc1C(N)=O			rat liver microsomes	30 min, pH 7.4		Km	20.7 µM
C=CC[C@@H]1/C=C(\C)C[C@H](C)C[C@H](OC)[C@H]2O[C@@](O)(C(=O)C(=O)N3CCCC[C@H]3C(=O)O[C@H](/C(C)=C/[C@@H]3CC[C@@H](O)[C@H](OC)C3)[C@H](C)[C@@H](O)CC1=O)[C@H](C)C[C@@H]2OC		calcium-selective electrode	Wistar Kyoto rat, male, heparinized whole blood	ip, 0.5 mg/kg/day, day 28		free Ca2+	1.21 ± 0.06 mmol/L
CNCCOC12CC3(C)CC(C)(CC(Cn4ncc(-c5ccc(N6CCc7cccc(C(=O)Nc8nc9ccccc9s8)c7C6)nc5C(=O)O)c4C)(C3)C1)C2			beagle dog, male, anaesthetised	intravenous bolus, 0.03 mg/kg, 210 min	relative to: baseline	mean arterial pressure change	-33%

Some of these lines once more:
SMILES	tested on	test	system	conditions	scale	measurement	value
CC[C@H](C)[C@H](NC(=O)[C@H](Cc1ccccc1)NC(=O)[C@H](CCC(=O)O)NC(=O)[C@H](CCCCNC(=O)COCCOCCNC(=O)COCCOCCNC(=O)CC[C@H](NC(=O)CCCCCCCCCCCCCCCCC(=O)O)C(=O)O)NC(=O)[C@H](C)NC(=O)[C@H](C)NC(=O)[C@H](CCC(N)=O)NC(=O)CNC(=O)[C@H](CCC(=O)O)NC(=O)[C@H](CC(C)C)NC(=O)[C@H](Cc1ccc(O)cc1)NC(=O)[C@H](CO)NC(=O)[C@H](CO)NC(=O)[C@@H](NC(=O)[C@H](CC(=O)O)NC(=O)[C@H](CO)NC(=O)[C@@H](NC(=O)[C@H](Cc1ccccc1)NC(=O)[C@@H](NC(=O)CNC(=O)[C@H](CCC(=O)O)NC(=O)C(C)(C)NC(=O)[C@@H](N)Cc1cnc[nH]1)[C@@H](C)O)[C@@H](C)O)C(C)C)C(=O)N[C@@H](C)C(=O)N[C@@H](Cc1c[nH]c2ccccc12)C(=O)N[C@@H](CC(C)C)C(=O)N[C@H](C(=O)N[C@@H](CCCNC(=N)N)C(=O)NCC(=O)N[C@@H](CCCNC(=N)N)C(=O)NCC(=O)O)C(C)C			Caucasian subjects	1.0 mg		subjects with moderate AEs	12.5%
CCOc1ccc2ccc(=O)oc2c1			CD-1 mouse, male, hepatocytes	1 µM		hepatic clearance	> 75.9 mL/min/kg
CSc1cc(C)nc(SC)c1NC(=O)CN1CCN(CCSc2nc3ccccc3[nH]2)CC1.Cl			mouse Crl:CD1 (ICR), female, cerebrum	intranasal, 10 µL of CA solution once daily for 7 days, 120 min after last dose, LLOQ 0.5 ng/g		tissue concentration	not detected
